Assay results of several laboratories.
Compare with care: the assays were run in different laboratories. ± gives the spread as reported. In brackets after ≈: the same amount, converted by molar mass.
Organism: Escherichia coli

CC[C@H](C)[C@H](NC(=O)[C@H](CC(C)C)NC(=O)[C@@H](NC(=O)[C@H](CCCNC(=N)N)NC(=O)[C@H](CCCNC(=N)N)NC(=O)[C@H](CCCNC(=N)N)NC(=O)[C@@H](N)CCCNC(=N)N)[C@@H](C)CC)C(=O)N[C@@H](CCCCN)C(=O)N[C@@H](CCCCN)C(=O)N[C@H](C(=O)N[C@@H](CC(C)C)C(=O)N[C@@H](CCCCN)C(=O)N[C@@H](CC(C)C)C(=O)N[C@@H](CCCCN)C(=O)N[C@@H](CO)C(=O)N[C@@H](CO)C(=O)N[C@@H](C)C(=O)N[C@@H](Cc1ccc(O)cc1)C(N)=O)C(C)C has an FICI of 0.25 (checkerboard; unit not given, with: azithromycin; lower means synergy).
CC(C)C[C@H](NC(=O)[C@H](CCN)NC(=O)[C@H](CCN)NC(=O)[C@@H](Cc1ccccc1)NC(=O)[C@H](CC(C)C)NC(=O)[C@H](CCN)NC(=O)[C@H](CCN)NC(=O)[C@H](N)CCN)C(N)=O gave an MBC of 128 µM (ATCC 10546; 24 h, 37 °C).
With Cn1c(=O)ccc2ccc(F)c(CCNC[C@H]3CN(c4cnc5c(n4)NC(=O)CO5)C(=O)O3)c21 the MIC50 was 0.12 µg/mL (≈ 0.256 µM).
The MIC90 of COc1c([N+](=O)[O-])oc2ccc3ccccc3c12 is reported as greater than 32 µg/mL (REMA).
With CC(C)C[C@H](NC(=O)[C@H](CCCCN)NC(=O)OCC1c2ccccc2-c2ccccc21)C(=O)N[C@H](C(=O)N[C@@H](Cc1ccccc1)C(=O)N[C@@H](Cc1ccccc1)C(=O)N[C@@H](CCCCN)C(=O)NCC(=O)N[C@@H](Cc1ccccc1)C(=O)N[C@@H](C)C(=O)N[C@@H](Cc1c[nH]c2ccccc12)C(=O)N[C@@H](CC(N)=O)C(=O)N[C@H](C(=O)N[C@H]1CSSC[C@@H](C(=O)N[C@@H](Cc2c[nH]cn2)C(=O)N[C@@H](CCCNC(=N)N)C(=O)N[C@@H](CCCNC(=N)N)C(=O)N[C@@H](C)C(=O)N[C@@H](CC(N)=O)C(N)=O)NC(=O)[C@H](C(C)C)NC(=O)[C@H](CCCNC(=N)N)NC(=O)[C@H](C(C)C)NC(=O)CNC(=O)[C@H](CC(N)=O)NC(=O)[C@H](CCCNC(=N)N)NC(=O)[C@H](Cc2ccc(O)cc2)NC(=O)[C@H](C(C)C)NC1=O)C(C)C)C(C)C the Emax was -5.13 log CFU (bactericidal activity; CGMCC 1.9; 24 h).
For CC[C@H](C)[C@H](N)C(=O)N[C@@H](CO)C(=O)N[C@@H](Cc1ccccc1)C(=O)N[C@@H](CC(C)C)C(=O)NCC(=O)N[C@@H](CO)C(=O)N[C@@H](CCCCN)C(=O)N[C@H](C(=O)N[C@H](C(=O)N[C@H](C(=O)N[C@@H](CC(C)C)C(=O)N[C@@H](CC(C)C)C(=O)N[C@@H](CCCCN)C(=O)N[C@@H](CCCNC(=N)N)C(=O)N[C@@H](CCCNC(=N)N)C(=O)N[C@@H](CCCNC(=N)N)C(=O)N[C@@H](CCCNC(=N)N)C(=O)N[C@@H](CCCNC(=N)N)C(=O)N[C@@H](CCCNC(=N)N)C(=O)N[C@@H](CCCNC(=N)N)C(N)=O)C(C)C)C(C)C)C(C)C, the FICI was 0.19 (checkerboard; unit not given, with: rifampicin; lower means synergy).
CCn1cc(C(=O)O)c(=O)c2cc(F)c(N3CCNCC3)cc21: “generations to resistance” 17 generations (ATCC 25922).
CC[C@@H](C)[C@@H](N)C(=O)N[C@@H](C(=O)N[C@H](Cc1ccc(O)cc1)C(=O)N[C@@H](C(=O)N[C@H](CCN)C(=O)N[C@H](CC(C)C)C(=O)N[C@H](CO)C(=O)N[C@H](CCN)C(=O)N[C@@H](C(=O)N[C@H](CCN)C(=O)N[C@H](Cc1c[nH]cn1)C(=O)N[C@H](CCN)C(=O)N[C@H](C)C(=O)N[C@H](CCN)C(=O)N[C@H](CCN)C(N)=O)[C@H](C)CC)[C@H](C)CC)[C@H](C)CC has an MBC of 8 µg/mL (ATCC 25922, 100% human serum; 20 h, 37 °C).
For CC[C@H](C)[C@H](NC(=O)[C@H](CCCNC(=N)N)NC(=O)[C@H](CCCNC(=N)N)NC(=O)[C@H](CCCNC(=N)N)NC(=O)[C@H](CCCNC(=N)N)NC(=O)[C@H](CCCNC(=N)N)NC(=O)[C@@H](N)CCCNC(=N)N)C(=O)N[C@@H](CO)C(=O)N[C@@H](Cc1ccccc1)C(=O)N[C@@H](CC(C)C)C(=O)NCC(=O)N[C@@H](CO)C(=O)N[C@@H](CCCCN)C(=O)N[C@H](C(=O)N[C@H](C(=O)N[C@H](C(=O)N[C@@H](CC(C)C)C(=O)N[C@@H](CC(C)C)C(=O)N[C@@H](CCCCN)C(=O)N[C@@H](CCCNC(=N)N)C(=O)N[C@@H](CCCNC(=N)N)C(=O)N[C@@H](CCCNC(=N)N)C(=O)N[C@@H](CCCNC(=N)N)C(=O)N[C@@H](CCCNC(=N)N)C(N)=O)C(C)C)C(C)C)C(C)C, the FICI was roughly 0.38 (checkerboard; unit not given, with: azithromycin; lower means synergy).
COc1ccc(CC2NCCc3cc(OC)c(OC)cc32)cc1OC.Cl (centres unmarked) has an MBC of greater than 1600 µM (24 h, 37 °C).
For CC[C@H](C)[C@H](NC(=O)[C@H](CCCNC(=N)N)NC(=O)[C@H](CCCNC(=N)N)NC(=O)[C@H](CCCNC(=N)N)NC(=O)[C@H](CCCNC(=N)N)NC(=O)[C@H](CCCNC(=N)N)NC(=O)[C@@H](N)CCCNC(=N)N)C(=O)N[C@@H](CO)C(=O)N[C@@H](Cc1ccccc1)C(=O)N[C@@H](CC(C)C)C(=O)NCC(=O)N[C@@H](CO)C(=O)N[C@@H](CCCCN)C(=O)N[C@@H](CCCCN)C(=O)N[C@@H](CCCCN)C(=O)N[C@@H](CCCCN)C(=O)N[C@@H](CCCCN)C(=O)N[C@@H](CC(C)C)C(=O)N[C@@H](CC(C)C)C(=O)N[C@@H](CCCCN)C(=O)N[C@@H](CCCNC(=N)N)C(N)=O, the FICI was 0.5 (checkerboard; unit not given, with: azithromycin; lower means synergy).
For COC(=O)c1ccc2c(ccc3oc([N+](=O)[O-])cc32)c1, the MIC90 was greater than 32 µg/mL (REMA).
For CC(N)C(O)CCCCCCCCCCCCCCC(=O)CCCCCCCC(O)C(C)N (centres unmarked), the growth inhibition was 98 ± 0.31% (resazurin; ATCC 10536; 50 µM).
For Cc1cc(-c2cn[nH]c2-c2cccc(OCc3cccc(C#N)c3)c2)cc(C)n1, the MIC50 was 1 to 2 µg/mL (≈ 2.63 to 5.26 µM) (multidrug-resistant clinical isolates).
With CCc1c([N+](=O)[O-])oc2ccc3ccccc3c12 the MIC90 was 1 µg/mL (≈ 4.15 µM) (REMA).
For C[C@@H](O)[C@H]1C(=O)N2C(C(=O)O)=C(S[C@@H]3CN[C@H](C(=O)Nc4cccc(C(=O)O)c4)C3)[C@H](C)[C@H]12, “MIC fold reduction” read greater than 64 fold (checkerboard; carbapenem-resistant; concentration not given, with: anionic gold nanoparticle 8 µg/mL; baseline: MIC alone over combination).
COc1ccc2c(ccc3oc([N+](=O)[O-])c(OC)c32)c1 gave an MIC90 of greater than 32 µg/mL (REMA).
C[C@@H](O)[C@H]1C(=O)N2C(C(=O)O)=C(S[C@@H]3CN[C@H](C(=O)N(C)C)C3)[C@H](C)[C@H]12 — result for “MIC fold increase”: greater than 8 fold (DH5a clone with KPC-137; baseline: empty vector strain).
For CC[C@H](C)[C@H](NC(=O)[C@H](Cc1ccccc1)NC(=O)[C@@H](NC(=O)[C@H](CO)NC(=O)[C@@H](N)CCCNC(=N)N)[C@@H](C)CC)C(=O)N[C@@H](CCCCN)C(=O)N[C@@H](Cc1ccc(O)cc1)C(=O)N[C@@H](CCCCN)C(=O)N[C@@H](CO)C(=O)N[C@@H](CCCCN)C(=O)N1CCC[C@H]1C(=O)N[C@@H](Cc1ccccc1)C(=O)N[C@@H](CS)C(=O)N[C@@H](CCC(=O)O)C(=O)N[C@@H](CCCCN)C(=O)N[C@@H](CC(C)C)C(=O)N[C@@H](CC(C)C)C(=O)N[C@@H](CO)C(=O)N[C@@H](Cc1c[nH]c2ccccc12)C(=O)N[C@H](C(=O)N[C@@H](CCCCN)C(=O)N[C@@H](CO)C(=O)O)C(C)C, the MBC was 32 µg/mL (K12 MG1655).
CC[C@H](C)[C@H](NC(=O)[C@H](Cc1ccc(O)cc1)NC(=O)[C@@H](NC(=O)[C@H](Cc1ccc(O)cc1)NC(=O)[C@@H]1CCCN1C(=O)[C@@H](NC(=O)[C@H](C)N)[C@@H](C)CC)[C@@H](C)CC)C(=O)N[C@@H](Cc1c[nH]c2ccccc12)C(=O)N[C@@H](CCCNC(=N)N)C(=O)N[C@@H](CC(C)C)C(=O)N[C@@H](CC(C)C)C(=O)N[C@@H](CCCNC(=N)N)C(=O)N[C@@H](CCCCN)C(=O)NCC(=O)O has an MBC of 3.75 µM (D31; 18 h, 37 °C).
For O=C(O)c1cccc(C(=O)O)n1, “fold MIC reduction” read 64 (VIM-2 producer; 32 µg/mL, with: meropenem; baseline: meropenem alone).
C[C@@H](O)[C@H]1C(=O)N2C(C(=O)O)=C(SCCN=CN)C[C@H]12 — result for “MIC fold increase”: 16 fold (DH5a clone with KPC-136; baseline: empty vector strain).
With O=[N+]([O-])c1cc2c(ccc3c2ccc2cc([N+](=O)[O-])oc23)o1 the MIC90 was greater than 32 µg/mL (REMA).
CC(C)[C@@H]1NC(=O)[C@H](C)OC(=O)[C@@H](C(C)C)NC(=O)[C@@H](C(C)C)OC(=O)[C@H](C(C)C)NC(=O)[C@H](C)OC(=O)[C@@H](C(C)C)NC(=O)[C@@H](C(C)C)OC(=O)[C@H](C(C)C)NC(=O)[C@H](C)OC(=O)[C@@H](C(C)C)NC(=O)[C@@H](C(C)C)OC1=O has a tetracycline MIC of 450 ± 100 µM (checkerboard; tetracycline-resistant (pBR322); 20 µM, with: tetracycline).
For CC[C@@H](C)[C@@H](N)C(=O)N[C@@H](C(=O)N[C@H](Cc1ccc(O)cc1)C(=O)N[C@@H](C(=O)N[C@H](CCCNC(=N)N)C(=O)N[C@H](CC(C)C)C(=O)N[C@H](CO)C(=O)N[C@H](CCCNC(=N)N)C(=O)N[C@@H](C(=O)N[C@H](CCCNC(=N)N)C(=O)N[C@H](Cc1c[nH]cn1)C(=O)N[C@H](CCCNC(=N)N)C(=O)N[C@H](C)C(=O)N[C@H](CCCNC(=N)N)C(=O)N[C@H](CCCNC(=N)N)C(N)=O)[C@H](C)CC)[C@H](C)CC)[C@H](C)CC, the MBC was 8 µg/mL (ATCC 25922, Mueller-Hinton broth; 20 h, 37 °C).
C[C@H]1[C@H](NC(=O)/C(=N\OC(C)(C)C(=O)O)c2csc(N)n2)C(=O)N1S(=O)(=O)O gave an ED50 of 70.1 mg/kg (ATCC 2469 NDM-1, ICR mouse systemic infection; intravenous).

Repeated from above:
For COC(=O)c1ccc2c(ccc3oc([N+](=O)[O-])cc32)c1, the MIC90 was greater than 32 µg/mL (REMA).
CCn1cc(C(=O)O)c(=O)c2cc(F)c(N3CCNCC3)cc21: “generations to resistance” 17 generations (ATCC 25922).
For CC[C@H](C)[C@H](NC(=O)[C@H](CCCNC(=N)N)NC(=O)[C@H](CCCNC(=N)N)NC(=O)[C@H](CCCNC(=N)N)NC(=O)[C@H](CCCNC(=N)N)NC(=O)[C@H](CCCNC(=N)N)NC(=O)[C@@H](N)CCCNC(=N)N)C(=O)N[C@@H](CO)C(=O)N[C@@H](Cc1ccccc1)C(=O)N[C@@H](CC(C)C)C(=O)NCC(=O)N[C@@H](CO)C(=O)N[C@@H](CCCCN)C(=O)N[C@H](C(=O)N[C@H](C(=O)N[C@H](C(=O)N[C@@H](CC(C)C)C(=O)N[C@@H](CC(C)C)C(=O)N[C@@H](CCCCN)C(=O)N[C@@H](CCCNC(=N)N)C(=O)N[C@@H](CCCNC(=N)N)C(=O)N[C@@H](CCCNC(=N)N)C(=O)N[C@@H](CCCNC(=N)N)C(=O)N[C@@H](CCCNC(=N)N)C(N)=O)C(C)C)C(C)C)C(C)C, the FICI was roughly 0.38 (checkerboard; unit not given, with: azithromycin; lower means synergy).
